Assay results collected from several papers.
Each line is one published result; not all experiments were run side by side. Numbers after ± are the reported error.

Structure (SMILES) = COc1cc[nH]c1/C=C1\C(=O)Nc2ccc([N+](=O)[O-])c(N3CC[C@@H](O)C3)c21; tested on = human cytomegalovirus; test = viral yield; test system = HFF, AD169; conditions = 96 h; quantity = EC50; value = 10 ± 5 nM
Structure (SMILES) = COc1ccc(Cn2ccc3ccc(C(=O)NO)cc32)cc1; tested on = OCI-Ly1; conditions = 0.1 µM, 120 h; quantity = viability; value = 118%
Structure (SMILES) = Cc1ccc(S(=O)(=O)c2nc(S(=O)(=O)NCc3ccccc3)sc2Cl)cc1; tested on = human cytomegalovirus; test = viral replication; test system = HFF, AD169; quantity = EC50; value = < 50 nM
Structure (SMILES) = CN1CCN(c2cnc3c(cc(C(=O)NCc4ccc(Cl)cc4)c(=O)n3CC(=O)N3CC(C)(F)C3)n2)C1=O; tested on = human cytomegalovirus; test = viral cytopathic effect; test system = MRC-5, Davis; conditions = 168 h; quantity = EC50; value = 200 nM
Structure (SMILES) = Cc1nc(NCCNc2ccnc3cc(Cl)ccc23)nc(-c2ccccc2[N+](=O)[O-])c1C(=O)OC(C)C; tested on = human cytomegalovirus; test = viral replication; test system = HEL, AD-169; quantity = EC50; value = > 20000 nM
Structure (SMILES) = Nc1nc(O)c2ncn(COC(CO)CO)c2n1; tested on = human cytomegalovirus; test = viral replication; test system = HFF, AD169; quantity = EC50; value = 570 ± 390 nM
Structure (SMILES) = Cc1nc(NCCCCNc2ccnc3cc(Cl)ccc23)nc(-c2ccccc2[N+](=O)[O-])c1C(=O)OC(C)C; tested on = human cytomegalovirus; test = viral replication; test system = HEL, Davis; quantity = EC50; value = > 4000 nM
Structure (SMILES) = O=C(O)CCNc1cc(N2CCc3ccccc3CC2)nc(-c2cccnc2)n1; tested on = OCI-Ly1; conditions = 0.1 µM, 120 h; quantity = viability; value = 125%
Structure (SMILES) = CC1(C)CN(C(=O)Cn2c(=O)c(C(=O)NCc3ccc(Cl)cc3)cc3nccnc32)C1; tested on = human cytomegalovirus; test = viral replication, GFP reporter; test system = MRC-5, AD169-GFP; quantity = EC50; value = 2060 nM
Structure (SMILES) = CC1CCCN(S(=O)(=O)c2nc(-c3ccc(Br)cc3)oc2-c2ccc(Cl)cc2)C1 (stereo not drawn); tested on = human cytomegalovirus; test = viral replication; test system = HFF, AD169; quantity = EC50; value = 5480 nM
Structure (SMILES) = Nc1nc(O)c2ncn(COC(CO)CO)c2n1; tested on = human cytomegalovirus; test = viral cytopathic effect; test system = MRC-5, Davis; conditions = 168 h; quantity = EC50; value = 7100 nM
Structure (SMILES) = Cc1nc(NCCCNc2ccnc3cc(Cl)ccc23)nc(-c2cccc([N+](=O)[O-])c2)c1C(=O)OC(C)C; tested on = human cytomegalovirus; test = viral replication; test system = HEL, Davis; quantity = EC50; value = > 4000 nM

Repeated from above:
Structure (SMILES) = Cc1nc(NCCCNc2ccnc3cc(Cl)ccc23)nc(-c2cccc([N+](=O)[O-])c2)c1C(=O)OC(C)C; tested on = human cytomegalovirus; test = viral replication; test system = HEL, Davis; quantity = EC50; value = > 4000 nM
